{"data": "Experimental data gathered from unrelated publications", "note": "Each numbered part is a random draw from the data of one study; scales do not carry over between parts."}
{"data": "Study 1", "target": "Sal-like protein 4, full length isoform A (SALL4, Homo sapiens, UniProt Q9UJQ4, residues 1-1053)", "technique": "universal PBM", "form": "double-stranded DNA, one strand shown", "medium": "in vitro", "concentration": "600 nM", "setting": "8-mer, flanks averaged, mean of replicates", "reading": "higher = stronger binding", "sequence of UniProt Q9UJQ4 (whole entry, looked up)": "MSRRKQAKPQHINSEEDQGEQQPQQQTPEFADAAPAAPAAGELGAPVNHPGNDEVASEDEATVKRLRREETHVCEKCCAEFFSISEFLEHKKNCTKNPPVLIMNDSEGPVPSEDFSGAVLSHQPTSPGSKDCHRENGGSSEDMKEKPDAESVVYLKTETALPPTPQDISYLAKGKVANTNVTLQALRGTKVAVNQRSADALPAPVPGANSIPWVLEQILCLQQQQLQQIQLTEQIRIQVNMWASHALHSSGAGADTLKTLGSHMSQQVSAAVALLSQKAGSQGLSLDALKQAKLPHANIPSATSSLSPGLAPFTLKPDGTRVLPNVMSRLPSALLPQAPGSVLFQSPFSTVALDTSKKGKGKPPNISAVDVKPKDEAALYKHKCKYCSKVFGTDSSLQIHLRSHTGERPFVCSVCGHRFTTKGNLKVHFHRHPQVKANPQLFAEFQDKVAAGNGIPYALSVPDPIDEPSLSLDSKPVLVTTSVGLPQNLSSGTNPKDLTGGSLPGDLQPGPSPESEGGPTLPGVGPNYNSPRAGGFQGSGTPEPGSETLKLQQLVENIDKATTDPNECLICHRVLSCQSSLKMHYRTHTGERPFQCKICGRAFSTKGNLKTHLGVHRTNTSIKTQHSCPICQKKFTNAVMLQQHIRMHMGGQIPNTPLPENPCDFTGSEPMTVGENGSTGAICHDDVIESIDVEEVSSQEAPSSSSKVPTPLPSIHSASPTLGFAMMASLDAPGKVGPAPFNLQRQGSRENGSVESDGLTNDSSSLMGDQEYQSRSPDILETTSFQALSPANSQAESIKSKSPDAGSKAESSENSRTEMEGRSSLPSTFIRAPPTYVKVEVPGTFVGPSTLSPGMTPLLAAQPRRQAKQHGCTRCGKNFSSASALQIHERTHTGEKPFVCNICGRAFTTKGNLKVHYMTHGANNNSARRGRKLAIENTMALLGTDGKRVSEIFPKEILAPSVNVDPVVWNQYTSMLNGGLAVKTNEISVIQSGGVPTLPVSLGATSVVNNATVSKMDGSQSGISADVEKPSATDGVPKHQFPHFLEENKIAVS"}
{"Sequence": "ACCACGCC", "E-score": -0.215}
{"Sequence": "ATTGGCCG", "E-score": -0.0644}
{"Sequence": "GTATTACA", "E-score": 0.314}
{"data": "Study 2", "target": "Transcription factor Sp1 (SP1, Homo sapiens, UniProt P08047, residues 1-785, full length assumed)", "technique": "protein-binding microarray", "form": "double-stranded DNA, one strand shown", "medium": "in vitro", "concentration": "not given", "setting": "k-mer, scored over probes, only values ≥0.25", "reading": "higher = stronger binding", "sequence of UniProt P08047 (whole entry, looked up)": "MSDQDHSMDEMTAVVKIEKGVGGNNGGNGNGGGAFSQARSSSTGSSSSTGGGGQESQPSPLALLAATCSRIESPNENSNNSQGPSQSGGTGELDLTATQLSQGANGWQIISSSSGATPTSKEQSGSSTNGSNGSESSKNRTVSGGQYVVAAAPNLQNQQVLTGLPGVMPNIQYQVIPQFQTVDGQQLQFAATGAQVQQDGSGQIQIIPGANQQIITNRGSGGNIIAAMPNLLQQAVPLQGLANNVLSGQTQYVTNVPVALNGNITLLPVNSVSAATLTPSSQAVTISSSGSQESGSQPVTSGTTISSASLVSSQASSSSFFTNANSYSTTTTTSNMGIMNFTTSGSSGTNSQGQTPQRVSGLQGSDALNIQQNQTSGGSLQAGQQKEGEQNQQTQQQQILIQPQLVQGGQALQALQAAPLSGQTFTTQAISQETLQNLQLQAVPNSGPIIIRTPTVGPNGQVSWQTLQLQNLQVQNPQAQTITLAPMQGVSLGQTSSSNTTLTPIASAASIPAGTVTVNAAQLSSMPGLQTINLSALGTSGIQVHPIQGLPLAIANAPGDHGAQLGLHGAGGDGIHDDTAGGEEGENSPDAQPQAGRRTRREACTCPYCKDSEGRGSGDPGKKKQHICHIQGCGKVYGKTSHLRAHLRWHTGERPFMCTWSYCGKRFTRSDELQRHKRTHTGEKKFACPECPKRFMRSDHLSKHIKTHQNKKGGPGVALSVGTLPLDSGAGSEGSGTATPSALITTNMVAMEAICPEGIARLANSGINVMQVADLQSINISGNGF"}
{"Sequence": "CAACAACA", "E-score": 0.307}
{"Sequence": "ACCCCTAT", "E-score": 0.311}
{"Sequence": "ATAAGTTA", "E-score": 0.277}
{"data": "Study 3", "target": "Histone acetyltransferase KAT6A, winged helix 1, GST fusion (KAT6A, Homo sapiens, UniProt Q92794, residues 1-85)", "technique": "protein binding microarray", "form": "double-stranded DNA, one strand shown", "medium": "in vitro", "concentration": "not given", "setting": "8-mer, flanks averaged, mean of 2 arrays, mostly near background", "reference": "not given", "reading": "higher = stronger binding", "Residues (chain)": "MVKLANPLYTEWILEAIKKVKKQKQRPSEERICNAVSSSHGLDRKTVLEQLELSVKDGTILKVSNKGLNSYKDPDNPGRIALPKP"}
{"Sequence": "CTTTGGGA", "E-score": -0.203}
{"Sequence": "TAGATAAA", "E-score": -0.168}
{"Sequence": "TAGGCTAA", "E-score": -0.152}
{"data": "Single results of other studies"}
{"Molecule": "PhoQ, residues 284 288 289 292 302 303 TASMAF", "target": "PhoP, residues 12 14 15 18 19 FWNTL (Escherichia coli, UniProt P23836)", "test": "Sort-seq, refers to: YFP reporter", "test system": "E. coli", "setting": "PhoQ-PhoP variant library, together with: 10 µM Mg2+", "scale": "reference: high Mg2+ state, higher = stronger signaling", "quantity": "fold induction", "result": 14.3}
{"note": "Repeated from above (single results of other studies):"}
{"Molecule": "PhoQ, residues 284 288 289 292 302 303 TASMAF", "target": "PhoP, residues 12 14 15 18 19 FWNTL (Escherichia coli, UniProt P23836)", "test": "Sort-seq, refers to: YFP reporter", "test system": "E. coli", "setting": "PhoQ-PhoP variant library, together with: 10 µM Mg2+", "scale": "reference: high Mg2+ state, higher = stronger signaling", "quantity": "fold induction", "result": 14.3}
